Results pooled from the literature.
Lines come from different studies, so protocols differ. “And” joins repeats or separate records; there may be more than shown.

SMILES | test | system | conditions | Tmax
NCCCS(=O)(=O)O |  | human, plasma | oral, 256.5 mg twice daily, day 7, capsule, fed, dosed days 2-7 | 2 h
CCCCCCCCCCC(=O)O[C@H]1CC[C@H]2[C@@H]3CCC4=CC(=O)CC[C@]4(C)[C@H]3CC[C@]12C | item: testosterone | human, plasma | oral, 237 mg | 4 h and 3 h
C=C(C)[C@@H]1CC[C@]2(NCCN3CCS(=O)(=O)CC3)CC[C@]3(C)[C@H](CC[C@@H]4[C@@]5(C)CC=C(C6=CC[C@@](COc7ncccc7C#N)(C(=O)O)CC6)C(C)(C)[C@@H]5CC[C@]43C)[C@@H]12 |  | human, fasted | oral, 100 mg tablet, median | 6 h
CC(C)c1nc(N(C)S(C)(=O)=O)nc(-c2ccc(F)cc2)c1/C=C/[C@@H](O)C[C@@H](O)CC(=O)O |  | healthy human subjects, plasma | oral, 20 mg, day 1, alone, median | 4 h
CC(=O)c1c(C)c2cnc(Nc3ccc(C4CCN(CCS(C)(=O)=O)CC4)cn3)nc2n(C2CCCC2)c1=O |  | human patients, plasma | oral, 100 mg twice daily, day 1 single dose, together with: fulvestrant | 1.38 h
CCOC(=O)C1=C[C@@H](OC(CC)CC)[C@H](NC(C)=O)[C@@H](N)C1 |  | human, both sexes, plasma | oral, 150 mg, median, together with: alcohol | 1.5 h
O=c1ccc2ncc(=O)n3c2n1C[C@H]3CN1CCC(NCc2cc3c(cn2)OCCC3)CC1 |  | healthy human volunteers, plasma | oral, dose not given, median, together with: rifampicin | 2 h
COc1ccc(C[C@@H]2NC(=O)[C@H]([C@@H](C)O)NC(=O)[C@@H]3[C@@H]4CCN3C(=O)[C@@H]3Cc5cn(c6ccc(F)cc56)CCCCCCN(Cc5ccc(cc5)CCNC(=O)[C@]5(C)CCCN5C2=O)C(=O)CCC(=O)N[C@@H](C)C(=O)N[C@H](CNC(=O)CCCCC[N+](C)(C)C)C(=O)N[C@@H](Cc2cccc(c2)CNC(=O)CO4)C(=O)N3)cc1 |  | human, plasma | oral, 40 mg, fasted, together with: sodium caprate 720 mg | 0.75 h
O[C@H]1CCCN[C@@H]1CCCn1cnc2c(Cl)c(Cl)ccc21 |  | healthy human, plasma | oral, 150 mg, steady state, together with: nintedanib 150 mg | 4 h
C[C@H](NC(=O)c1c(C(F)F)nn(C)c1Oc1cccc(C(F)(F)F)c1)c1ccc(C(=O)O)cc1 |  | human, plasma | 750 mg, cycle 1 day 8, median | 2 h
COc1cc2nccc(Oc3ccc(NC(=O)NC4CC4)c(Cl)c3)c2cc1C(N)=O |  | human, plasma | oral, 6.4 mg, 4 weeks, multiple doses, median | 2 h
CC(C)[C@H](N)C(=O)NCCCS(=O)(=O)O |  | human, plasma | oral, 265 mg twice daily, week 65, steady state | 1.4 h
O=C(O)C(O)(c1cccs1)c1cccs1 | item: metabolite | human, plasma | oral, 50 mg once daily, 5 days, median | 11.5 h
O=C(O)C(F)(F)C(F)(F)C(F)(F)C(F)(F)C(F)(F)C(F)(F)C(F)(F)F | two-compartment model | human, plasma | oral, 50 mg weekly | 2 h
CCOC(=O)C1=C(CN2CCOCC2)NC(c2nccs2)=NC1c1ccc(F)cc1Br (centres unmarked) |  | human, healthy | fasted | 0.75 h
OCc1ncc2n1-c1ccc(Cl)cc1C(c1ccccc1F)=NC2 |  | human, plasma | 7.5 mg midazolam, day 1, median, metabolite of midazolam, together with: midazolam 7.5 mg alone | 0.5 h
OCc1ncc2n1-c1ccc(Cl)cc1C(c1ccccc1F)=NC2 |  | humans, plasma | 3 mg of midazolam, together with: isavuconazole | 2 h
CCC(CC)COC(=O)[C@H](C)N[P@](=O)(OC[C@H]1O[C@@](C#N)(c2ccc3c(N)ncnn23)[C@H](O)[C@@H]1O)Oc1ccccc1 |  | human, plasma | intravenous, 100 mg single dose | 0.5 h
OCc1ncc2n1-c1ccc(Cl)cc1C(c1ccccc1F)=NC2 |  | healthy human volunteers, plasma | 5 mg, day 11, fed, together with: once daily, momelotinib 200 mg, days 4 to 11 | 1.5 h
Cc1ncc2n1-c1ccc(Cl)cc1C(c1ccccc1F)=NC2 |  | human, plasma | oral, 2 mg, day 1 | 0.5 h
CCN(CC)C(=O)[C@@H]1C=C2c3cccc4[nH]cc(c34)C[C@H]2N(C)C1 |  | human, plasma | dose not given, after placebo pretreatment | 1.7 h
N[C@@H](Cc1ccc(O)c(O)c1)C(=O)O | item: carbidopa | healthy human volunteers, plasma | subcutaneous, 24 h infusion, median, crossover | 18 h
N.N.O=C([O-])C1(C(=O)[O-])CCC1.[Pt+2] | item: non-protein-bound platinum | human, plasma ultrafiltrate | target AUC 3, median | 0.6 h

Excerpt of the above:
SMILES | test | system | conditions | Tmax
CC(=O)c1c(C)c2cnc(Nc3ccc(C4CCN(CCS(C)(=O)=O)CC4)cn3)nc2n(C2CCCC2)c1=O |  | human patients, plasma | oral, 100 mg twice daily, day 1 single dose, together with: fulvestrant | 1.38 h
O=C(O)C(F)(F)C(F)(F)C(F)(F)C(F)(F)C(F)(F)C(F)(F)C(F)(F)F | two-compartment model | human, plasma | oral, 50 mg weekly | 2 h
